Experimental data collected from several papers.
Parts stem from different laboratories: compare values within a part only. Several values in a cell are separate wells, animals, samples, runs or records.
UniProt O15530, sequence (whole entry, looked up): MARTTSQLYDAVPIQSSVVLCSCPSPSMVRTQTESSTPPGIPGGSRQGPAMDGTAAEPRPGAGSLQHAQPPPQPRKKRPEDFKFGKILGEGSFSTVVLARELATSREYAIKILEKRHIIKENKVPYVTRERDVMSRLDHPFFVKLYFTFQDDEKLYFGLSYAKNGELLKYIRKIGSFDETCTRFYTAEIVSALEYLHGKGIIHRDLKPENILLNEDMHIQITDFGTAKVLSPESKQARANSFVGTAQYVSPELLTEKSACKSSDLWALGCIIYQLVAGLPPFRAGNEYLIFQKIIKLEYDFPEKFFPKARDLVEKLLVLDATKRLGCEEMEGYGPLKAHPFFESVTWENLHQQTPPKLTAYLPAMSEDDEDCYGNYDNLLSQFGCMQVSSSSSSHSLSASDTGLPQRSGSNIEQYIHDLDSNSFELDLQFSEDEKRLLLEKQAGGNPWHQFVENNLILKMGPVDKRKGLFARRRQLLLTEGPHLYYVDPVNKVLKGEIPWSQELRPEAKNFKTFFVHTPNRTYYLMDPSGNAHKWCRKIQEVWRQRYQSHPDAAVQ
UniProt O43781, sequence (whole entry, looked up): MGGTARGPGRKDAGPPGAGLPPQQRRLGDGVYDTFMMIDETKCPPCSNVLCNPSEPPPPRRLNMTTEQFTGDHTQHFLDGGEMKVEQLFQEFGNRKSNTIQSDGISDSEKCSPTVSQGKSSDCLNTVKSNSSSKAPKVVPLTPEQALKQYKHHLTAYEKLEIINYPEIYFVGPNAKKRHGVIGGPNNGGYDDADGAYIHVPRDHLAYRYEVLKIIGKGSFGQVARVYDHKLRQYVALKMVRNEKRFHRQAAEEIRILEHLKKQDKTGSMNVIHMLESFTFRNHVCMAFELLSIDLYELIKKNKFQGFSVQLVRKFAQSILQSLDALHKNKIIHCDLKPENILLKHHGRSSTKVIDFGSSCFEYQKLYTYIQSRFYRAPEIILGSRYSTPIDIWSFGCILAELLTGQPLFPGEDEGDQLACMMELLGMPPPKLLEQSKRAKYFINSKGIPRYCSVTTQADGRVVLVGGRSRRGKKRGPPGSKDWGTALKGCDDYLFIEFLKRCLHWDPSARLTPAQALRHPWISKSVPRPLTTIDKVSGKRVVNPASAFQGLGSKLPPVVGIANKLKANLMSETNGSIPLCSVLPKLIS
UniProt P54762, sequence (whole entry, looked up): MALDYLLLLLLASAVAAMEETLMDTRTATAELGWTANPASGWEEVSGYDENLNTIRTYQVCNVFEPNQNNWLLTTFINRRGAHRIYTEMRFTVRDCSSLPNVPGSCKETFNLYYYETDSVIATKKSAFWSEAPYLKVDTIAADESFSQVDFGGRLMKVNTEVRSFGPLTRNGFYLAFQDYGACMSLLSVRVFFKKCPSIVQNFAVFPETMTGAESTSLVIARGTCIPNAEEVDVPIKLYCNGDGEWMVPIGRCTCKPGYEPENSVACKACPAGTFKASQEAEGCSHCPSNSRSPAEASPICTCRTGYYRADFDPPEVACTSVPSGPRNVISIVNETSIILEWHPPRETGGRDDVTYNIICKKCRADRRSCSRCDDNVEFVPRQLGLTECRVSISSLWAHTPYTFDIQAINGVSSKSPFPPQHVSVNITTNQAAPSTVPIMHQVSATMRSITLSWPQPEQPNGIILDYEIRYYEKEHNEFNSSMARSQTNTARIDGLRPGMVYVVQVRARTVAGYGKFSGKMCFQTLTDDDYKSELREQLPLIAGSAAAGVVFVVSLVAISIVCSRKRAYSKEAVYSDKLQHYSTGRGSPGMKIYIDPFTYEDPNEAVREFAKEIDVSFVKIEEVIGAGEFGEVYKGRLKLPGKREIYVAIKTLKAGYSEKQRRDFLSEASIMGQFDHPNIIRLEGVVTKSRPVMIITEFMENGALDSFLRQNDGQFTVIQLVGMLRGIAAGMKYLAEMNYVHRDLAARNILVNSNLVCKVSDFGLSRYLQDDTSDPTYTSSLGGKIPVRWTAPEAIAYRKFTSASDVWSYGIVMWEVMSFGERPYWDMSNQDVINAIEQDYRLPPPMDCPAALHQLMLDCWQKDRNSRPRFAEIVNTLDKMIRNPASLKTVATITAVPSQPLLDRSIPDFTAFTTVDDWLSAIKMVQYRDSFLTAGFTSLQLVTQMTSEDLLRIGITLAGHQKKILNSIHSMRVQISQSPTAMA
UniProt Q00534, sequence (whole entry, looked up): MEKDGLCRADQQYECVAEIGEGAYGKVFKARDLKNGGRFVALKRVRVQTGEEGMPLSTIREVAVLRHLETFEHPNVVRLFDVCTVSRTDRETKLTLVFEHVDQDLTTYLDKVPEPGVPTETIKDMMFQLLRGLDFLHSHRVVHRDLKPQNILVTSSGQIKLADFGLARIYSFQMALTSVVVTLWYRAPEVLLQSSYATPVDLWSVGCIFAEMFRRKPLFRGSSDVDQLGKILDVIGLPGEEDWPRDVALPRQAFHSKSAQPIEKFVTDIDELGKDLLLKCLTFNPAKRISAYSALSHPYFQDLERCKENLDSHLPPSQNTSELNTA
UniProt P06493, sequence (whole entry, looked up): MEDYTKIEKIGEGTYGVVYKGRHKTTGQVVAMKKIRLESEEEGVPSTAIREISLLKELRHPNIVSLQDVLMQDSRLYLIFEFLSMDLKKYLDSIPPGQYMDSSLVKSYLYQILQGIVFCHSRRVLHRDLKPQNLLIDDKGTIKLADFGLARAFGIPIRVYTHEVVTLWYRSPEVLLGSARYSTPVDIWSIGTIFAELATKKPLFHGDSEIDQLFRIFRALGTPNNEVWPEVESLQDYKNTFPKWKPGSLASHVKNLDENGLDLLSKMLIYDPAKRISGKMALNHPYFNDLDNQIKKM
UniProt Q9H2X6, sequence (whole entry, looked up): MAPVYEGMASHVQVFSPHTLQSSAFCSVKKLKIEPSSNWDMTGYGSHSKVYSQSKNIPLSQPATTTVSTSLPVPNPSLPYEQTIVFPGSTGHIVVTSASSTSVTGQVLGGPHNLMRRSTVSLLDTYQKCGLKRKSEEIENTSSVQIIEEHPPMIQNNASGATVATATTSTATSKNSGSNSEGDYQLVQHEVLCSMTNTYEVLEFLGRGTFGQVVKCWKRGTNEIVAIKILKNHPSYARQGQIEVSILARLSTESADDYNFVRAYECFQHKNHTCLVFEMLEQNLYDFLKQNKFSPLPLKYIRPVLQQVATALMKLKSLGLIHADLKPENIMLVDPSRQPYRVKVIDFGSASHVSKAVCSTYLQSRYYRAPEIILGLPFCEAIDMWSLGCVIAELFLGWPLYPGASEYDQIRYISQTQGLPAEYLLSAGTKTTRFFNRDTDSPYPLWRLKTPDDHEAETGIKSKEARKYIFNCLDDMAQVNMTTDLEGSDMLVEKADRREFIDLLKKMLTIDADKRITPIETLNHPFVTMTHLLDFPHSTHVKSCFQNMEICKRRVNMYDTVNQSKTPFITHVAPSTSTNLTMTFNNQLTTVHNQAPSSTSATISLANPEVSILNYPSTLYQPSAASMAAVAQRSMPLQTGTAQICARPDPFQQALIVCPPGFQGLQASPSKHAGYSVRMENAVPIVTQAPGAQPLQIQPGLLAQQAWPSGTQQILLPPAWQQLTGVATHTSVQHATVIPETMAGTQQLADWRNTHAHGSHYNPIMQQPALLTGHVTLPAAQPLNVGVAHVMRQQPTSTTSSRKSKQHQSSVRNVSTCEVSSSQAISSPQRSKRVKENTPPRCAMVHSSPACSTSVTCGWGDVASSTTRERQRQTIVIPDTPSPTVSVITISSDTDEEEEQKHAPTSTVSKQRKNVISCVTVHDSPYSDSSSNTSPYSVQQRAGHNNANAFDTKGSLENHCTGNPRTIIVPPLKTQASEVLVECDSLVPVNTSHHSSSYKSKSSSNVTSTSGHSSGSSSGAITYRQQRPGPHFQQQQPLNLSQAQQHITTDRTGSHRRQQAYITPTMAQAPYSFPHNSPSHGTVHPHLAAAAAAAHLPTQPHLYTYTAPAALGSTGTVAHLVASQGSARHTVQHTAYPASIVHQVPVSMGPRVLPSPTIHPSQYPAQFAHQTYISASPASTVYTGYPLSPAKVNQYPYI
UniProt Q16644, sequence (whole entry, looked up): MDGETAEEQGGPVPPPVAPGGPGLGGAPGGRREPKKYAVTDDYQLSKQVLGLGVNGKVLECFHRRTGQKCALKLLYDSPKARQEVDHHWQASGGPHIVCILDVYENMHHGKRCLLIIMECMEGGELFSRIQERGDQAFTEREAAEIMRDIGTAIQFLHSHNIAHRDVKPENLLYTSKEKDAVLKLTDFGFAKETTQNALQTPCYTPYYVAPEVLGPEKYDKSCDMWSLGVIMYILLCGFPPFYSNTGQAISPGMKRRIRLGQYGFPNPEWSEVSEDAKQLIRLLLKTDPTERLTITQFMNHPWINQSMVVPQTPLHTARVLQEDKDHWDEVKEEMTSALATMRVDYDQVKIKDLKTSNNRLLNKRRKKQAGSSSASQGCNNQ

Study 1 — organism: Leishmania donovani; strain: DD8; endpoint: inhibition
Structure (SMILES): c1ccc(Oc2ccc(Nc3c4c(nc5ccccc35)CCC4)cc2)cc1
parasite killing; promastigotes; 3.33 µM, 96 h: 94% and 99%
parasite killing; promastigotes; 33.33 µM, 96 h: 100%
parasite viability, resazurin; promastigotes; 0.66 µM: 51% and 52% and 59% and 60%
parasite viability, resazurin; promastigotes; 33.33 µM: 100%
parasite killing; intracellular amastigotes; 0.04 µM, 72 h: 4% and 2%
parasite killing; promastigotes; 0.33 µM, 96 h: 34% and 30%
parasite killing; promastigotes; 16.66 µM, 48 h: 100%
parasite killing; intracellular amastigotes; 4 µM, 96 h: 98% and 97% and 95%
parasite killing; intracellular amastigotes; 0.8 µM, 72 h: 65% and 61% and 67%

Study 2 — effect on: enzyme activity; mode: inhibitor; concentration: 0.5 µM; reference: control; endpoint: remaining activity
SMILES: Oc1cccc(-c2nc(N3CCOCC3)c3oc4ncccc4c3n2)c1
Cyclin-dependent kinase 6, with cyclin D3 (CDK6, Homo sapiens, UniProt Q00534): 89.7%
Dual specificity tyrosine-phosphorylation-regulated kinase 3 (DYRK3, Homo sapiens, UniProt O43781): 94.9%
Serine/threonine-protein kinase WNK3 (WNK3, Homo sapiens, UniProt Q9BYP7): 93.9%
Testis-specific serine/threonine-protein kinase 2 (TSSK2, Homo sapiens, UniProt Q96PF2): 102%
Cyclin-dependent kinase 1, with cyclin B (CDK1, Homo sapiens, UniProt P06493): 108%
Calcium/calmodulin-dependent protein kinase type II subunit beta (CAMK2B, Homo sapiens, UniProt Q13554): 98.2%
3-phosphoinositide-dependent protein kinase 1 (PDPK1, Homo sapiens, UniProt O15530): 103%
Tyrosine-protein kinase Blk (BLK, Homo sapiens, UniProt P51451): 101%
Tyrosine-protein kinase receptor UFO (AXL, Homo sapiens, UniProt P30530): 105%
MAP kinase-activated protein kinase 3 (MAPKAPK3, Homo sapiens, UniProt Q16644): 93.9%
Ephrin type-B receptor 1 (EPHB1, Homo sapiens, UniProt P54762): 89.6%
Homeodomain-interacting protein kinase 4 (HIPK4, Homo sapiens, UniProt Q8NE63): 107%
Homeodomain-interacting protein kinase 2 (HIPK2, Homo sapiens, UniProt Q9H2X6): 102%
Tyrosine-protein kinase Srms (SRMS, Homo sapiens, UniProt Q9H3Y6): 96.2%
Phosphorylase b kinase gamma catalytic chain, skeletal muscle/heart isoform (PHKG1, Homo sapiens, UniProt Q16816): 93.3%
Ephrin type-A receptor 4 (EPHA4, Homo sapiens, UniProt P54764): 96.4%
Ephrin type-B receptor 4 (EPHB4, Homo sapiens, UniProt P54760): 104%
Tyrosine-protein kinase ABL1 (ABL1, Homo sapiens, UniProt P00519): 94.4%
cAMP-dependent protein kinase catalytic subunit gamma (PRKACG, Homo sapiens, UniProt P22612): 101%
Ribosomal protein S6 kinase alpha-6 (RPS6KA6, Homo sapiens, UniProt Q9UK32): 98.2%

Study 3 — effect on: ligand displacement; concentration: 10 µM; endpoint: inhibition
Target: Alpha-2C adrenergic receptor (ADRA2C, Homo sapiens, UniProt P18825)
UniProt P18825, sequence (whole entry, looked up): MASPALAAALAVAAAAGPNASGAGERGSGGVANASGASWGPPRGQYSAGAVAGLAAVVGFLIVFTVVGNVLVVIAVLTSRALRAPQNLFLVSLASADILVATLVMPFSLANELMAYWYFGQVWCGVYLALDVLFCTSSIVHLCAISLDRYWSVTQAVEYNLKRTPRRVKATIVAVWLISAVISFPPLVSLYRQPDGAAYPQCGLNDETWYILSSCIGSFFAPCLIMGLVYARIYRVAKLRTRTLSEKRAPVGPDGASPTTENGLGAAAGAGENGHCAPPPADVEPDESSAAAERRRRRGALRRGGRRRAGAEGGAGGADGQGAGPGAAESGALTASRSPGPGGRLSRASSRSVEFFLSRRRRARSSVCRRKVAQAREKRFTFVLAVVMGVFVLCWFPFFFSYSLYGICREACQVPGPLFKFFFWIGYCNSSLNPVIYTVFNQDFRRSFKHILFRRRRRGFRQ
Cn1cc(Cl)c2c(Oc3c(F)cc(Nc4cc(Cl)nc(N)n4)cc3F)ccnc21: -6.8%
CC1CCN(c2ccnc(NCc3cn(C)cn3)n2)CC1: 51.8%
CCC(F)(F)c1cc(N2CCC(S(C)(=O)=O)CC2)nc2sc(C(N)=O)c(N)c12: 13.7%
CN1CCN(c2ccnc(NCCc3ccccc3)n2)CC1: 96.8%
O=c1nc(-c2ccccn2)sc2ccccc12: -9.43%
COc1cccc(NC(=O)c2nc3scc(CN(C)Cc4ccccc4)c3c(=O)[nH]2)c1: 16.3%
CNC(=O)Nc1ccc2c(c1)CC[C@]21OC(=O)N(CC(=O)N(Cc2ccc(F)cc2)[C@@H](C)C(F)(F)F)C1=O: 20.7%
C[C@@H]1CN(c2cc(-c3n[nH]c4ccc(OC5(C)CC5)cc34)ncn2)C[C@H](C)O1: 7.85%
O=C(N[C@H]1CCCCC/C=C\C2C[C@@]2(C(=O)O)NC(=O)[C@@H]2C[C@@H](Oc3ccncc3)CN2C1=O)OC1CCCC1 (stereo partly shown): -4.47%
CCC(=NO)C(C)=Cc1ccc(F)c(C)c1: 15.7%
Cc1noc([C@H]2C[C@@H](c3ccc(C(F)(F)F)cc3)CN(C(=O)N3CCS(=O)(=O)C3)C2)n1: 10.5%
NC(=O)c1ccc2nc(-c3ccc(C4(N)CCC4)cc3)c(-c3ccccc3)n2n1: 38.9%
Cc1ccccc1Oc1cc(-n2c(=O)cc(C(F)(F)F)[nH]c2=O)c2ccccc2c1Cl: 10.8%
CN(C)CC#Cc1ccc(OCCCc2sc(N3CCc4cccc(C(=O)Nc5nc6ccccc6s5)c4C3)nc2C(=O)O)c(F)c1: 10.8%
CN1CCN(C(=O)C(C)(C)c2ccc(C(=O)Nc3cn4cc(-c5cc(C(C)(C)C)cc(C(C)(C)C)c5)ccc4n3)cc2)CC1: 88.5%
O=C1NC(c2ccccn2)Sc2ccccc21 (stereo not shown): -4.89%
CCOc1ccc(S(=O)(=O)Nc2ccc(Cl)cc2C#Cc2cnc(C(=O)O)cc2OC)c2ncccc12: 27.7%
COc1ccc2cc(OCC3(C(=O)O)CN(C(=O)c4ccc(F)cc4)C3)ccc2c1: 9.72%
CNC(=N)NCCC[C@H](NC(=O)[C@H](CC(C)C)NC(=O)NNC(=O)[C@H](Cc1ccccc1)NC(=O)[C@H](CO)NC(=O)[C@H](CC(N)=O)NC(=O)[C@@H](Cc1ccncc1)NC(=O)[C@H](N)Cc1ccc(O)cc1)C(=O)N[C@@H](Cc1ccccc1)C(N)=O: 4.19%

Other studies, line by line
c1ccc2c(-c3nn4c(-c5ccncc5)nnc4s3)c[nH]c2c1  GCase activity (Gaucher fibroblasts L444P/L444P; 4-MUG hydrolysis, cell lysate; 1 µM; reference: DMSO): 165%
O=C(COc1ccc(Cl)cc1)NC1CCC(NC(=O)COc2ccc(Cl)cc2)CC1 (stereo not shown)  GCase activity (non-Gaucher fibroblasts; 4-MUG hydrolysis, cell lysate; concentration not given; reference: DMSO): 116% and 110%
Ic1ccc(Nc2nc(NCCN3CCOCC3)nc(N3CCOCC3)n2)cc1  GCase activity (Gaucher fibroblasts L444P/L444P; 4-MUG hydrolysis, cell lysate; 1 µM, 72 h, with: ISRIB; reference: vehicle): 167% and 151% and 163% and 146% and 117% and 137%
Cc1cccc(/C=N/Nc2cc(N3CCOCC3)nc(OCCc3ccccn3)n2)c1  GCase activity (L444P/L444P Gaucher fibroblasts; 4-MUG hydrolysis in lysate; 0.5 µM, 72 h, with: ISRIB; reference: vehicle): 184% and 229% and 193% and 195% and 203% and 179% and 202%

Repeated from above (study 2):
Dual specificity tyrosine-phosphorylation-regulated kinase 3 (DYRK3, Homo sapiens, UniProt O43781): 94.9%
Serine/threonine-protein kinase WNK3 (WNK3, Homo sapiens, UniProt Q9BYP7): 93.9%
Testis-specific serine/threonine-protein kinase 2 (TSSK2, Homo sapiens, UniProt Q96PF2): 102%
Cyclin-dependent kinase 1, with cyclin B (CDK1, Homo sapiens, UniProt P06493): 108%
Calcium/calmodulin-dependent protein kinase type II subunit beta (CAMK2B, Homo sapiens, UniProt Q13554): 98.2%
